Measured values from different studies.
Each numbered part is a random draw from the data of one study; scales do not carry over between parts.

Sample 1
Target: Sal-like protein 4, full length isoform A (SALL4, Homo sapiens, UniProt Q9UJQ4, residues 1-1053)
Chain of UniProt Q9UJQ4 (whole entry, looked up): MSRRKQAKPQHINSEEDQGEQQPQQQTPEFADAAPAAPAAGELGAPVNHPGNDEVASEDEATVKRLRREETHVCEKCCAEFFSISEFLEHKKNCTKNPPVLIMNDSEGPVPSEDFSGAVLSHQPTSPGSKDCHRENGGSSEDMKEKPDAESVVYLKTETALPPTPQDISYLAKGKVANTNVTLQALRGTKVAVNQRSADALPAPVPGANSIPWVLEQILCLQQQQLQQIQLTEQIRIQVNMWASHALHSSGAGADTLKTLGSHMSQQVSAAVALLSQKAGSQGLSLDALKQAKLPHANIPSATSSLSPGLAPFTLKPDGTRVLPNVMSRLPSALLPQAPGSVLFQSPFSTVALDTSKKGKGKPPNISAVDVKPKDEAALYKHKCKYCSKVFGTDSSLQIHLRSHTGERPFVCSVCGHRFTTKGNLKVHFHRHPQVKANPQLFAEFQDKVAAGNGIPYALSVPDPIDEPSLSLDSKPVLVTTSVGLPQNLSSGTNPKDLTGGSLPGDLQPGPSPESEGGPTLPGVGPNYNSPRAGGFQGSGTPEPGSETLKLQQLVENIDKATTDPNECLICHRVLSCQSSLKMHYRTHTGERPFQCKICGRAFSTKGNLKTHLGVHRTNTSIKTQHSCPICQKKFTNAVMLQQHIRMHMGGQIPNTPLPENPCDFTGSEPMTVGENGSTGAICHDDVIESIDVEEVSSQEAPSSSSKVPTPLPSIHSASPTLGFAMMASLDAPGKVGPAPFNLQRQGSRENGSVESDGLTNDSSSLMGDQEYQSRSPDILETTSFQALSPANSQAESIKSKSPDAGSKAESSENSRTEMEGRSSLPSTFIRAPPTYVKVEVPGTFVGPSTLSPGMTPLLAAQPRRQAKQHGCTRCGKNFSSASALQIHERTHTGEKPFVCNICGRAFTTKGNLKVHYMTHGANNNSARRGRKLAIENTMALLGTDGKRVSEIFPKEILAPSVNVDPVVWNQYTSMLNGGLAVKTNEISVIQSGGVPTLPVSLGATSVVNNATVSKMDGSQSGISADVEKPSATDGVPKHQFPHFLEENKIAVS
Technique: universal PBM
Molecule type: double-stranded DNA, one strand shown
Matrix: in vitro
Tested at: 600 nM
Setting: 8-mer, flanks averaged, mean of replicates
Direction: higher = stronger binding
The E-score of `CCTCTACG` is reported as -0.15.
`AACTACTA` gave an E-score of 0.243.
`CCCTAGCC` gave an E-score of -0.242.
`GAAGTCAC` has an E-score of -0.114.
With `CCATAAGA` the E-score was 0.153.
For `ATCTAATC`, the E-score was 0.297.
With `CAACTAGG` the E-score was 0.0292.
For `AATGAACG`, the E-score was 0.226.
For `CAGAGAAG`, the E-score was 0.0106.
The E-score of `AAACCTTC` is reported as -0.112.
For `AGTTAACG`, the E-score was 0.115.
`CCGACACC` has an E-score of -0.307.
`GCGCAAAA` gave an E-score of 0.212.
`AGGCAAAT` gave an E-score of 0.0868.
`CACGCACC` has an E-score of -0.334.
For `CGACGAGA`, the E-score was -0.0633.
`GGGAGCAA` has an E-score of -0.194.
For `CTCTGAAC`, the E-score was -0.118.

Sample 2
Target: RNA binding protein fox-1 homolog 2, RRM domain, GST-SBP tag (RBFOX2, Homo sapiens, UniProt O43251-10, residues 100-194)
Technique: RNA Bind-n-Seq
Molecule type: RNA
Matrix: in vitro
Tested at: 365 nM
Setting: natural RNA segment, single round, ends assumed
Baseline: no-protein control
Direction: higher = stronger binding
Construct (chain): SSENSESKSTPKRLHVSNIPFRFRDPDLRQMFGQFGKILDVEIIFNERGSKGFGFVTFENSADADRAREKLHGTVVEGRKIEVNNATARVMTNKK
For `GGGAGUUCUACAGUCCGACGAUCGGCCCGGCGUGGGCACACAGACAGCCCGCUUUGUUCUUUCAUUUCCUCCAGCACUUUCUUUCCGCCUGAGUCCAGCCCAAGGCCUUUUAUUUUGCGCUGUGUAACUGCUGUGGAAUUCUCGGGUGCCAA`, “RBNS enrichment (R)” read 0.749.
Under “RBNS enrichment (R)”, `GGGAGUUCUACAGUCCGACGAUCAACCGAUCCUGGGGCUUUUCCCGCCCGUAGGCGCCUGAGGCAGGCAGGGGCAAGUGUACAAUGGGGCCUAGUCCCCAGCAGGCGGCUGGGAGGCCGCCACUGAGCAUCUCUGGAAUUCUCGGGUGCCAA` is recorded as 0.284.
For `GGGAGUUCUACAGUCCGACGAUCGAAAGUUAGUAAGCCUAAGUUUUUACAUAAUUGCAUUCCUACAUUCUUGUAAAAUUUAAAUAGCUACCAUUGGCAAUCUGCUUUUUUUCUAAAAUCUGAUUUGCAGCCAGUGGAAUUCUCGGGUGCCAA`, “RBNS enrichment (R)” read 0.743.
`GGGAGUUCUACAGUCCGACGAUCGGCAGGGCCUUGAAAGAGCUCACACUUCCGAGGCGGAAAUGGGUACCAAAAUGAGAGAUCAGCAAGAUUUCCCAAGAUAGGAGAAUCCUCCUGCUGCCUGCGUGGGAGAAUGGAAUUCUCGGGUGCCAA` — result for “RBNS enrichment (R)”: 1.14.
`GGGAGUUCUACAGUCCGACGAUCCCUAGUUGUCCUGGUGCUAACACAGGAGCUACACCUUGAUCCUCUCCUGGCAUGAAAAUAAAACAAAGGUUUUCGUUGUUGUUGUUCCAUUGCCCAUUUCCCCCAUGUUGUGGAAUUCUCGGGUGCCAA` — result for “RBNS enrichment (R)”: 0.521.
For `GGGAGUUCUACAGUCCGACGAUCACAGAUAUUUCUGAGUGGUGGAAUCAGGUUUUCUAUGUUCUGCUUUAAAGCCUGGAGUCUGUUAGAUUAACUACCAAAUAGGAAGCAGCCAUGGAGGUUAUUGCCUGCGUUGGAAUUCUCGGGUGCCAA`, “RBNS enrichment (R)” read 0.452.
`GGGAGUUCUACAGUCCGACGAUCGCAUGGUGCACUGUCGUCUUUGCUCUUCAUUGAGGAUCUUCCACCCACCAUGGUCCCCUCAGUUGCACCUAGUGUCUAGCAAUGUGUCUUGCAAGAAAUUCCUAAUUCUUUGGAAUUCUCGGGUGCCAA`: “RBNS enrichment (R)” 2.24.
`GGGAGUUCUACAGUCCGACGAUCCAGGCUUGACUUCCUAUGGUGUUAUUCUGGAACAUGCUGCCACGAGUCCCGGCUUUUGGAGUCCCAGCACACUUGAACUUGGAUUUGCCAUUCAGUAUUAAUAGAUCAUGUGGAAUUCUCGGGUGCCAA`: “RBNS enrichment (R)” 0.327.

Sample 3
Target: Hepatocyte nuclear factor 3-alpha (Foxa1, Mus musculus, UniProt P35582, residues 1-468, full length assumed)
Technique: EMSA with sequencing
Molecule type: double-stranded DNA, one strand shown
Matrix: in vitro
Tested at: 10 and 20 nM
Setting: whole designed probe, mean of two concentrations, ends assumed
Baseline: negative control set to 0
Direction: higher = stronger binding
Target sequence (chain): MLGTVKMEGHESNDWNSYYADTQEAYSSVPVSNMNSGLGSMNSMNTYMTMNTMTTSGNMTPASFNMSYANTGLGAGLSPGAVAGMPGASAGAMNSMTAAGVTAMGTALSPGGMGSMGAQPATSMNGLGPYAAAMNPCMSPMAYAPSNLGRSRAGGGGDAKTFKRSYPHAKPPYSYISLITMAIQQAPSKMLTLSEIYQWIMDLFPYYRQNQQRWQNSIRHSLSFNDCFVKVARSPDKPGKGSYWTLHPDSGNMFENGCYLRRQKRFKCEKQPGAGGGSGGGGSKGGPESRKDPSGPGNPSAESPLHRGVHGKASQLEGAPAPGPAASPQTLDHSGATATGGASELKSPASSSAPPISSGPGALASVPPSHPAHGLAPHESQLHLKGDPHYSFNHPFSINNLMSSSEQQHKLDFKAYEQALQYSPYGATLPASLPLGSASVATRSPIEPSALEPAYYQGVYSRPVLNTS
For `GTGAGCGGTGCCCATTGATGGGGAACCCACAGCTTCAATCATTTTCAGAGCCTGAGTTAGTCTACAAATGGGTTGAGAACACGTTTTTTTTTCACTCAGGCGAAAAGTCATTTCCAAAGTAAACAAAGACTTTAAACTGGGAATTAAGGGCAAGATCAGGGATGAGGAAGTTAATACCATATTGAAAAGTTCTAAGGAAGAAGGCCATGTAACGAGATATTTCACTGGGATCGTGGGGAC`, “normalised bound fraction” read 0.459 ratio.
`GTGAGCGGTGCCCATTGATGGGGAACTGGAAAAAGATCCCCAAATGAAACTCCTAAAAATAAACCCTGCAATCACACTGGCATATGTGATCAGTATGAGATTTCATATTGTGCACCCCTGTTTACTCTGAGAATGTGCTTCTTAATGGTTCATGTATACATCATGGCTCTGCTCAAAGTCACTCCTGCAAGAAGCCCAGAGGCTTCTATCTGGAGGCTTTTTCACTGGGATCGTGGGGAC`: “normalised bound fraction” 0.0684 ratio.
`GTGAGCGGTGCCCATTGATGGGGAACATGTGGGAACTAATTGAGGACCATGTTTACAATGCGTACAAATCATAAATCAATTAGTACAAGGAAGAATCATATTGATTTACAAAAAGTATTTGTTTACATTGATACTGTCCATGTAAACTTTTTTCAATTCAAAAGAAACACATAGTTCTGTCATAAAGTAGATTTTCTATCCCTTTTATTTTCTGAGCTTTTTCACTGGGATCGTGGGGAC` — result for “normalised bound fraction”: 0.456 ratio.
`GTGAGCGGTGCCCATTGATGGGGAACCGGCAGTGGGCGTGGCTAGGTGGGGCGGGACGGAGCCGCGGCGGAGGATGGGGCGGGGTTTCATGGGGTAAGCGGGGCCGAAATAGAGCCTGTAAATTACTCTGGTTCACAGGCAGCATGTCTTTGGTTTTCTGACTACTTCTTGTCCTGTGAAGCAGCGTTGCTGCCTGCCTATTTTAAGTTAATGTTTCAATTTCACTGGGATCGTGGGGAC`: “normalised bound fraction” -0.0755 ratio.
`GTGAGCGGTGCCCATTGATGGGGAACGACAGTACATGTTTTAGGATTTTTGGACCACACAGTCTCTGTCACAATGACTCAGCTTTGCCATTGTAGCGTGCAAACAGCCACAAACCATATGCAAACAAAGAGGGTGTGGTTGTATGCCAATAAAACTTTATTTACAAAAGCAGGAGGACAGTGGAGTTGGCTTGCAGACAGTCATTTGCAGAGCCCTGATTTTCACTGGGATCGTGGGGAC` — result for “normalised bound fraction”: 0.454 ratio.

Sample 4
Target: Histone acetyltransferase KAT6A, winged helix 2, GST fusion (KAT6A, Homo sapiens, UniProt Q92794, residues 85-181)
Technique: protein binding microarray
Molecule type: double-stranded DNA, one strand shown
Matrix: in vitro
Tested at: not given
Setting: 8-mer, flanks averaged, mean of 2 arrays, mostly near background
Baseline: not given
Direction: higher = stronger binding
Residues (chain): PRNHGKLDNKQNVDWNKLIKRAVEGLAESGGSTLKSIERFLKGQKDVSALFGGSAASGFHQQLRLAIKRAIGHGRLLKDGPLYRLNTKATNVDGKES
The E-score of `CCTAGCTA` is reported as -0.125.
`AATACCGC` has an E-score of 0.144.
`AAAACAGT` has an E-score of -0.0564.
`ATACGAAT` has an E-score of 0.0322.
`AATGACAG` gave an E-score of 0.00374.
`TAGTTTCA` has an E-score of -0.0619.
`GCCTCCCA` has an E-score of 0.0425.
`AGGGGAGG` has an E-score of 0.175.
`CGAATGTC` has an E-score of 0.0166.
With `ACCGATAG` the E-score was -0.0855.
`AATAGTAA` has an E-score of -0.0811.
For `CTGGCGTC`, the E-score was 0.0658.
`GACCCGCC` has an E-score of 0.194.
The E-score of `ATCCTCGA` is reported as 0.00521.
The E-score of `ACCATTAC` is reported as -0.123.
With `GCGAAAAA` the E-score was 0.171.
The E-score of `AGTTTTAA` is reported as 0.027.
`AATTCTAC` has an E-score of 0.0555.
`CACGGCTC` gave an E-score of 0.0663.
For `ACTAGTTC`, the E-score was -0.151.
`ACCGAACG` has an E-score of 0.1.
`CCTATTCG` has an E-score of -0.0622.
`AGGCGTAG` has an E-score of -0.0421.
`ACGGTACG` has an E-score of -0.098.
The E-score of `CTCCGGGA` is reported as 0.179.

Sample 5
Target: RING finger protein unkempt homolog, zinc fingers 1-6, SBP tag (UNK, Homo sapiens, UniProt Q9C0B0, residues 30-357)
Chain of UniProt Q9C0B0 (30-357, looked up): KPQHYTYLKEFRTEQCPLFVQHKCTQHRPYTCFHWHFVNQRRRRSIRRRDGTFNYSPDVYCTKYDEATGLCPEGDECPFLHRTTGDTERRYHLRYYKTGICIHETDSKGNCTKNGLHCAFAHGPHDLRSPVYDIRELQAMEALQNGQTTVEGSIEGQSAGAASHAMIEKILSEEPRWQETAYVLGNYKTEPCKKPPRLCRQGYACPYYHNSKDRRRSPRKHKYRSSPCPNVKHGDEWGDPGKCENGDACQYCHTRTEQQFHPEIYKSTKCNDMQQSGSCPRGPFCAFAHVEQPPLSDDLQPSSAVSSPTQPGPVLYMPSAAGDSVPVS
Technique: RNA Bind-n-Seq
Molecule type: RNA
Matrix: in vitro
Tested at: 100 nM
Setting: RNA with constant flanks, vertebrate orthologous sites, ends assumed
Baseline: input RNA pool
Direction: higher = stronger binding
For `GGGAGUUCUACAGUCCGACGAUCAUCGCUCAGUGACAGUAUGCCAUCUGUAGCGGAUUCGCAUUCUAGUCAUUUUUCUGAAUUUAGCUGUUCUGACUUAGAAAGCAUGAAAACUUCUUGUAGUCAUGGUUCCAGUGAGUAUCACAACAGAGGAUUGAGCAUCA`, the bound/input enrichment was 0.328 ratio.
The bound/input enrichment of `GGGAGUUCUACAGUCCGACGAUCGGCUUAUUGGUAGAGGCAGAAGGAUCAGAAGUUCAAGAUCAUCCUCAGCUACAUGAGACUAAAAUGUGGGGGCAUAAUGAAGCUCAAAAAGGUCAAGGGAAUUGAGGUACUCUGUAAAUUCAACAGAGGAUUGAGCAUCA` is reported as 0.482 ratio.
`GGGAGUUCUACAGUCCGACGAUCGUCCCUCAGUGACAGUAUGCCAUCAGUAGCGGAUUCCCACUCUAGUCAUUUCUCUGAAUUUAGCUGUUCUGACCUAGAAAGCAUGAAAACUUCUUGUAGUCAUGGUUCCACUGAUUAUCACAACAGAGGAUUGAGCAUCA` gave a bound/input enrichment of 1.56 ratio.
`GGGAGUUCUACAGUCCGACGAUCGCACAUGCCGCUAUCACCAAAAGCAAACUGCCACUUUUCAAAUUUCAUUCAGAGCUGUUUUAGUGUUUCCUAUUCCCUACCCUUCCCACUACGUUCAAUGAUGAAAUAGCCUCAGUUGUCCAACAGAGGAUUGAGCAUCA` has a bound/input enrichment of 1.89 ratio.
`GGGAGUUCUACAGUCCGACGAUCGGGGCGGCCAAUGGGGGAAUUUCCUGCUUGGCCUUGUCUCCUCUCCCUGCCAUCUUCCCCUAGUUAUUUUUUUUUUUACCACCAUGUGAUUAAGGUCGGUGCCGCCUCCCCCGACCAACUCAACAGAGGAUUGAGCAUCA` gave a bound/input enrichment of 5.47 ratio.
The bound/input enrichment of `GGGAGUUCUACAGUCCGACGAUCUCCUAUAAUGCUAGCAGACUGGCUUCCCCUUCUACUUCUCCCAGUAACAACAAUCCCACAUAGAUUCCAGACACAUCCGAUGAGACUGUUGUACUCUAGGUUUUCUAUUGUGUCUACAUACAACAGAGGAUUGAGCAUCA` is reported as 1.67 ratio.
With `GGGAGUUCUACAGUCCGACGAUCAUUCAAGCCUGUGGUACCAUGGCCUCAUGUUGAAGGAGUAGAAGUGGACUUAGAGUCUAUUAGAAGAAAAAACAAGGCCAAAAAUGAACAGGAGCGUCAUGCUGGAGGAGAUUCCCAGAACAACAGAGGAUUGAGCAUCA` the bound/input enrichment was 0.415 ratio.
`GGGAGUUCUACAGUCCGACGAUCCAUCAGGUUUCUAGCUUCACAUUCCUGCAUAUUGCAUUUGAGAACAUGAAAGGUACAAUUAUACCCUUUCUUAAAGAUGACUUAAAUUCUACAGUAUGUCUUGGUCACUUAAAUAAAACCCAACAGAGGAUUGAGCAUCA` gave a bound/input enrichment of 0.797 ratio.
